# Results of several laboratories.
# A part holds a random share of what one study measured. Changes are numbered by the printed parent chain.

# Study 1
# Target: Interferon regulatory factor 5, full length, phosphomimetic (IRF5, Homo sapiens, UniProt Q13568-2, residues 1-514, K96S/S451D/S453D/S456D/S462D)
# Method: protein-binding microarray
# Form: double-stranded DNA, one strand shown
# Matrix: in vitro
# Tested at: 250 nM
# Setting: 60-bp whole probe
# Added: salmon DNA 0.4 mg/ml
# Relative to: random background probes
# Reading: higher = stronger binding
# Constant ends, left off below: GCCTAGCAC … GTCTTGATTCGCTTGACGCTGCTG
Oligonucleotide,log fluorescence
TTAGATTTCGGGTTTCGATCAGTGCTA,8.44 z-score
GACCAACTGAGTTTCGAGACGTGCTAG,4.41 z-score
ATGGCAAAAAAAAAAGATTTGTGCTAG,0.225 z-score
GACGATTTCGGTTCCGGGACGTGCTAG,6.86 z-score
TAAGAACTGAGACTGGATTAGTGCTAG,-0.082 z-score
GTGAGTCCCAAGAATGGTGTGGTGCTA,-0.478 z-score
TTAGGTTTCGGTTCCGGTCAGTGCTAG,10.5 z-score
TTAGGTCTCCTACTTCTTTAGTGCTAG,-0.0588 z-score
GACGGTCTGGGTTTCGGGACGTGCTAG,2.23 z-score
TCCCTTATAAATAGCACAGGGTGCTAG,0.359 z-score
TTAGGTATCGACTTTAGGTTAGTGCTA,2.89 z-score
GACGGTGTCGGGTTTCGGGACGTGCTA,1.53 z-score
TTAGGACTGGGGTTTCAGTTAGTGCTA,0.82 z-score

# Study 2
# Target: Sal-like protein 4, full length isoform B (SALL4, Homo sapiens, UniProt Q9UJQ4-2, residues 1-616)
# Method: universal PBM
# Form: double-stranded DNA, one strand shown
# Matrix: in vitro
# Tested at: not given
# Setting: 8-mer, flanks averaged, mean of replicates
# Reading: higher = stronger binding
# Residues (chain): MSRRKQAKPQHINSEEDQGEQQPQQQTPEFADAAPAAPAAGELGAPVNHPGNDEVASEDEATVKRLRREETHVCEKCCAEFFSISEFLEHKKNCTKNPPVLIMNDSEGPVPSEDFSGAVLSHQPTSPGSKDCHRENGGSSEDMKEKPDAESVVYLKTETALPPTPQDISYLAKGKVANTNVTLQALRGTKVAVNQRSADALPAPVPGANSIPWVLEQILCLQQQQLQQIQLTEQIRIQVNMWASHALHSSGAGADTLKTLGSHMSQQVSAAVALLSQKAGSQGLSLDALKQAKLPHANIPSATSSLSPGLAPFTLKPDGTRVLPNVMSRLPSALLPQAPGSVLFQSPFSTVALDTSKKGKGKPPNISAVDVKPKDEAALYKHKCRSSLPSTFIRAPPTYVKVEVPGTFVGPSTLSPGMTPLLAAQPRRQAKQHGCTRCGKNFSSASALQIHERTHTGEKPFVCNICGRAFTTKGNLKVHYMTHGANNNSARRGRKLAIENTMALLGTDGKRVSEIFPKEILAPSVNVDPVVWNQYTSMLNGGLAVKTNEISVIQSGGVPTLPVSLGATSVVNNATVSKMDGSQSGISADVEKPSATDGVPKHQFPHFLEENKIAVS
Oligonucleotide,E-score
CTTGGTGA,-0.16
ATCCGGGG,-0.182
CAGGCTCA,-0.0914
TCCACGGA,0.0533
GCAGCCTA,-0.025
ATACCCCA,-0.0301
CCCTGACG,-0.217
AAGGCCAC,-0.206
CCTACCCC,-0.321
GAATATTC,0.279
AGACCTTC,-0.0933
AGGTTAGC,-0.0794
GAAACACC,-0.038
GTGTGGAA,0.0922
ATCTAGAA,0.15
CAATGGGC,-0.175
GACTCTTA,0.194

# Study 3
# Target: CCNA1, cyclin fold, Cln2 fusion (human)
# Method: yeast growth competition, sequencing
# Matrix: yeast
# Setting: weak parent motif
# Relative to: not given
# Reading: higher = stronger binding
# Parent: SCAPER docking peptide (human); SNARRSLNFGGST; partner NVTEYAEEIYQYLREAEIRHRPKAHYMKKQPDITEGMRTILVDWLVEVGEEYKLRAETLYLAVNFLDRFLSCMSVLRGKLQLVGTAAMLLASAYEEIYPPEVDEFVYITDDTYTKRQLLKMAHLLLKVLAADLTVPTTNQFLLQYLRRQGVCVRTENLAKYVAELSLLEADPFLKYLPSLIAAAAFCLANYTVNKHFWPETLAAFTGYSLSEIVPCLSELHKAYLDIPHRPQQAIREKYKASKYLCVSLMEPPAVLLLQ
Variant,normalised enrichment score
SNARRSLNFGGSA [T13A],0.618
SNARRSINFGGST [L7I],0.3
SNASRSLNFGGST [R4S],0.0218
STARRSLNFGGST [N2T],0.693
SNARRMLNFGGST [S6M],0.596
SNAMRSLNFGGST [R4M],0.0285
SIARRSLNFGGST [N2I],0.437
SAARRSLNFGGST [N2A],0.67
SNARRSLNFGGHT [S12H],0.821
SMARRSLNFGGST [N2M],0.33
SNARRPLNFGGST [S6P],0.559
SNARRSLNFGGIT [S12I],0.733
SNARRLLNFGGST [S6L],0.379
SNAVRSLNFGGST [R4V],0.206

# Mixed results
Substance,target,assay,test system,setting,scale,quantity,result
"PhoQ, residues 284 288 289 292 302 303 STVVAA","PhoP, residues 12 14 15 18 19 TPLRH (Escherichia coli, UniProt P23836)","Sort-seq, refers to: YFP reporter",E. coli,"PhoQ-PhoP variant library, added: 10 µM Mg2+","relative to: high Mg2+ state, higher = stronger signaling",fold induction,0.763

# Some of these lines once more (study 3):
Variant,normalised enrichment score
SNARRSLNFGGHT [S12H],0.821
SMARRSLNFGGST [N2M],0.33
